Measurements pooled from the literature.
Each line is one published result; not all experiments were run side by side.

For `CC(C)Nc1nc2cc(Cl)c(Cl)cc2n1[C@H]1O[C@@H](CO)[C@H](O)[C@@H]1O`, “absorption lag time” read 0.212 h (population PK model; human; oral).
Under “absorption lag time”, `NC1(C(=O)N[C@@H](CCO)c2ccc(Cl)cc2)CCN(c2nc[nH]c3nccc2-3)CC1` is recorded as 0.287 h (human; tablets).
For `CC[C@@H]1CN(C(=O)NCC(F)(F)F)C[C@@H]1c1cnc2cnc3[nH]ccc3n12`, “absorption lag time” read 0.2 h (population PK modelling; human; oral, immediate-release formulation, outliers excluded).
`CCN1CCN(Cc2ccc(Nc3ncc(F)c(-c4cc(F)c5nc(C)n(C(C)C)c5c4)n3)nc2)CC1` — result for “absorption lag time”: 1.71 h (population PK model; human, plasma; oral).
Under “absorption lag time”, `COc1cc(N2CCC3(CCN(C)CC3)CC2)ccc1Nc1ncc(Cl)c(Nc2ccccc2P(C)(C)=O)n1` is recorded as 0.473 h (population PK model; human fed; oral, final model without outliers).
Under “absorption lag time”, `Cn1cnc2c(F)c(Nc3ccc(Br)cc3Cl)c(C(=O)NOCCO)cc21` is recorded as 0.41 h (population PK model; human, plasma; oral, first-order absorption model, fasted).
Under “absorption lag time”, `NC(=O)c1cnc2[nH]ccc2c1N[C@@H]1[C@@H]2CC3C[C@H]1C[C@@](O)(C3)C2` is recorded as 0.133 h (healthy human volunteers, plasma; oral, population PK model, bootstrap median).
`NC(N)=NCCC[C@@H](N)C(=O)N[C@@H](CCCN=C(N)N)C(=O)N1CCC[C@H]1C(=O)N1C[C@H](O)C[C@H]1C(=O)NCC(=O)N[C@@H](Cc1cccs1)C(=O)N[C@@H](CO)C(=O)N1Cc2ccccc2C[C@@H]1C(=O)N1[C@H](C(=O)N[C@@H](CCCN=C(N)N)C(=O)O)C[C@@H]2CCCC[C@@H]21`: “absorption lag time” 0.0426 h (popPK full model estimate; human; subcutaneous).

Some of these lines once more:
`CCN1CCN(Cc2ccc(Nc3ncc(F)c(-c4cc(F)c5nc(C)n(C(C)C)c5c4)n3)nc2)CC1` — result for “absorption lag time”: 1.71 h (population PK model; human, plasma; oral).
